{"data": "Measured values from different studies", "organism": "Plasmodium falciparum", "note": "Lines come from different studies, so protocols differ. “And” joins repeats or separate records; there may be more than shown."}
{"Compound": "N#Cc1c(-c2ccco2)[n+]([O-])c2ccc(F)cc2[n+]1[O-]", "strain": "3D7 chloroquine-sensitive", "reference": "KB IC50 over 3D7 IC50", "selectivity index": 7.26}
{"Compound": "C[C@H]1[C@@H](CCCOc2cccc(OCCC[C@H]3O[C@@H]4O[C@@]5(C)CC[C@H]6[C@H](C)CC[C@@H]([C@H]3C)[C@@]46O5)c2)O[C@@H]2O[C@@]3(C)CC[C@H]4[C@H](C)CC[C@@H]1[C@@]24OO3", "strain": "W2", "time": "72 h", "reference": "HepG2 over blood-stage parasites", "selectivity index": 1.86}
{"Compound": "Cc1ccc(C(C)C)cc1.[Cl][Ru+].[O-]c1ccccc1C=NCCNc1ccnc2cc(Cl)ccc12", "technique": "MTT", "cells": "CHO", "strain": "D10", "reference": "IC50 CHO over IC50 D10", "selectivity index": 1270}
{"Compound": "COC1=CC(c2ccc[nH]2)=NC1=Cc1[nH]c(Cc2ccc(Cl)cc2)cc1Cc1ccc(Cl)cc1", "cells": "HepG2", "strain": "D6", "reference": "HepG2 IC50 over D6 IC50", "selectivity index": "> 41000"}
{"Compound": "c1cncc(CCCOCCCCCCOC2CCCCO2)c1 (stereo not drawn)", "strain": "W2 chloroquine-resistant", "reference": "IC50 WI-26VA4 over IC50 W2", "selectivity index": "> 5.6"}
{"Compound": "C[C@H]1[C@@H](CCCOc2ccc(OCCC[C@H]3O[C@@H]4O[C@@]5(C)CC[C@H]6[C@H](C)CC[C@@H]([C@H]3C)[C@@]46OO5)cc2)O[C@@H]2O[C@@]3(C)CC[C@H]4[C@H](C)CC[C@@H]1[C@@]24OO3", "strain": "W2", "time": "72 h", "reference": "HepG2 over blood-stage parasites", "selectivity index": 6.46}
{"Compound": "CN1CCC[C@@H]1C(=O)N[C@@H](Cc1ccc(-c2ccccc2)cc1)B(O)O", "cells": "HepG2", "strain": "3D7", "time": "72 h", "reference": "HepG2 over P. falciparum", "selectivity index": "125 fold"}
{"Compound": "CCC1=C(C)C(c2ccc[nH]2)=NC1=CNC1CCCCCC1", "cells": "HepG2", "strain": "D6", "reference": "HepG2 IC50 over D6 IC50", "selectivity index": 105}
{"Compound": "CCCCN1C(=O)c2ccc3c4c(ccc(c24)C1=O)C(=O)N(CCNc1c2ccc(Cl)cc2nc2ccc(OC)cc12)C3=O", "cells": "NIH3T3", "strain": "3D7", "reference": "CC50 over IC50", "selectivity index": "> 5.5 and > 5.48"}
{"Compound": "C[C@H]1[C@@H](CCCOc2ccccc2OCCC[C@H]2O[C@@H]3O[C@@]4(C)CC[C@H]5[C@H](C)CC[C@@H]([C@H]2C)[C@@]35O4)O[C@@H]2O[C@@]3(C)CC[C@H]4[C@H](C)CC[C@@H]1[C@@]24OO3", "strain": "W2", "time": "72 h", "reference": "HepG2 over blood-stage parasites", "selectivity index": 2.63}
{"Compound": "CC(C)C1=CC(=CNC23CC4CC(CC(C4)C2)C3)N=C1c1ccc[nH]1", "cells": "HepG2", "strain": "D6", "reference": "HepG2 IC50 over D6 IC50", "selectivity index": 711}
{"Compound": "COc1ccc2c(c1)[n+]([O-])c(C#N)c(-c1ccco1)[n+]2[O-]", "strain": "3D7 chloroquine-sensitive", "reference": "KB IC50 over 3D7 IC50", "selectivity index": 5.03}
{"Compound": "CCC1=C(C)C(c2ccc[nH]2)=NC1=CNC1CCCCCCC1", "cells": "HepG2", "strain": "D6", "reference": "HepG2 IC50 over D6 IC50", "selectivity index": 215}
{"Compound": "N#Cc1c(-c2ccco2)[n+]([O-])c2ccc(C(F)(F)F)cc2[n+]1[O-]", "strain": "K1 chloroquine-resistant", "reference": "KB IC50 over K1 IC50", "selectivity index": 8.11}
{"Compound": "CC1=CC(=CNC23CC4CC(CC(C4)C2)C3)N=C1c1ccc[nH]1", "cells": "HepG2", "strain": "D6", "reference": "HepG2 IC50 over D6 IC50", "selectivity index": 283}
{"Compound": "c1ccc(CCCNc2ncnc3cc(OCC4CCN(CCNc5ccnc6ccccc56)CC4)ccc23)cc1", "cells": "HepG2", "strain": "NF54", "reference": "HepG2 cytotoxicity over P. falciparum activity", "selectivity index": 20}
{"Compound": "N#Cc1c(-c2ccco2)[n+]([O-])c2ccc(Cl)cc2[n+]1[O-]", "strain": "K1 chloroquine-resistant", "reference": "KB IC50 over K1 IC50", "selectivity index": 10.2}
{"Compound": "CCc1c(C)[nH]c(C=NC23CC4CC(CC(C4)C2)C3)c1C", "cells": "HepG2", "strain": "D6", "reference": "HepG2 IC50 over D6 IC50", "selectivity index": 906}
{"Compound": "C[C@H]1[C@@H](CCCOc2ccc(OCCC[C@H]3O[C@@H]4O[C@@]5(C)CC[C@H]6[C@H](C)CC[C@@H]([C@H]3C)[C@@]46O5)cc2)O[C@@H]2O[C@@]3(C)CC[C@H]4[C@H](C)CC[C@@H]1[C@@]24OO3", "strain": "W2", "time": "72 h", "reference": "HepG2 over blood-stage parasites", "selectivity index": 1.86}
{"Compound": "CCC1=C(C)C(=CNC2CCCCCCC2)N=C1c1ccc[nH]1", "cells": "HepG2", "strain": "D6", "reference": "HepG2 IC50 over D6 IC50", "selectivity index": 337}
{"Compound": "OCCCCCCCCCCOCCCc1cccnc1", "strain": "W2 chloroquine-resistant", "reference": "IC50 WI-26VA4 over IC50 W2", "selectivity index": 6.7}
{"Compound": "N#Cc1c(-c2ccco2)[n+]([O-])c2ccccc2[n+]1[O-]", "strain": "K1 chloroquine-resistant", "reference": "KB IC50 over K1 IC50", "selectivity index": 10.3}
{"Compound": "C[C@H]1[C@@H](CCCOc2ccccc2OCCC[C@H]2O[C@@H]3O[C@@]4(C)CC[C@H]5[C@H](C)CC[C@@H]([C@H]2C)[C@@]35OO4)O[C@@H]2O[C@@]3(C)CC[C@H]4[C@H](C)CC[C@@H]1[C@@]24OO3", "strain": "W2", "time": "72 h", "reference": "HepG2 over blood-stage parasites", "selectivity index": 9.78}
{"Compound": "c1cncc(CCCOCCCCCCCCCCCCOC2CCCCO2)c1 (stereo not drawn)", "strain": "W2 chloroquine-resistant", "reference": "IC50 WI-26VA4 over IC50 W2", "selectivity index": 1.2}
{"note": "For quick reference, copied from above:"}
{"Compound": "C[C@H]1[C@@H](CCCOc2ccc(OCCC[C@H]3O[C@@H]4O[C@@]5(C)CC[C@H]6[C@H](C)CC[C@@H]([C@H]3C)[C@@]46OO5)cc2)O[C@@H]2O[C@@]3(C)CC[C@H]4[C@H](C)CC[C@@H]1[C@@]24OO3", "strain": "W2", "time": "72 h", "reference": "HepG2 over blood-stage parasites", "selectivity index": 6.46}
{"Compound": "CN1CCC[C@@H]1C(=O)N[C@@H](Cc1ccc(-c2ccccc2)cc1)B(O)O", "cells": "HepG2", "strain": "3D7", "time": "72 h", "reference": "HepG2 over P. falciparum", "selectivity index": "125 fold"}
{"Compound": "CCC1=C(C)C(c2ccc[nH]2)=NC1=CNC1CCCCCC1", "cells": "HepG2", "strain": "D6", "reference": "HepG2 IC50 over D6 IC50", "selectivity index": 105}
{"Compound": "CCCCN1C(=O)c2ccc3c4c(ccc(c24)C1=O)C(=O)N(CCNc1c2ccc(Cl)cc2nc2ccc(OC)cc12)C3=O", "cells": "NIH3T3", "strain": "3D7", "reference": "CC50 over IC50", "selectivity index": "> 5.5 and > 5.48"}
